Published values of several laboratories.
Several values in a cell are separate wells, animals, samples, runs or records.

CCCCN1CCN(c2ccc3[nH]c(-c4ccc5[nH]c(-c6ccc(OCC)c(OCC)c6)nc5c4)nc3c2)CC1
growth percent (NCI-H522; SRB; 10 µM, 48 h): -32.2%

Cc1cc(=O)[nH]n1-c1nc(-c2ccc(Cl)cc2)c2c(NC(=O)c3ccccc3)nnc-2[nH]1
cell growth (NCI-H522; SRB; 10 µM, NCI60 single-dose screen; reference: untreated): 93.5%

O=C(/C=C/c1ccc(O)cc1)c1ccc(O)cc1O
viability (OCI-Ly1; 1 µM, 120 h): 168%

NNc1nc(-c2ccc(Cl)cc2)c2c(NC(=O)c3ccccc3)nnc-2[nH]1
cell growth (NCI-H522; SRB; 10 µM, NCI60 single-dose screen; reference: untreated): 95.3%

CCOc1ccc(-c2nc3cc(-c4nc5cc(N6CCN(C)CC6)ccc5[nH]4)ccc3[nH]2)cc1OCC
growth percent (NCI-H522; SRB; 10 µM, 48 h): -18.2%

C#C[C@@]1(O)[C@@H](CO)O[C@@H](n2cc(Cl)c3c(N)ncnc32)[C@@H]1O
TGI (NCI-H522; SRB; NCI-60 screen): 276 nM and 455 nM

Cc1n[nH]c2nc(-c3ccc(Cl)cc3)c3c(NC(=O)c4ccccc4)nnc-3n12
cell growth (NCI-H522; SRB; 10 µM, NCI60 single-dose screen; reference: untreated): 47.9%

O=C(/C=C/C=C/C=C/C1CCCCC1)NC1=C[C@@](O)(/C=C/C=C/C=C/C(=O)NC2=C(O)CCC2=O)[C@@H]2O[C@@H]2C1=O
GI50 (NCI-H522; cell growth, CellTiter-Glo; 78 h): 16700 nM

Cc1cc(=O)[nH]c(=O)n1Cc1cn(-c2cc3ccccc3oc2=O)nn1
growth percentage (NCI-H522; NCI60 single-dose screen; 10 µM): 91.9%

Cc1n(Cc2ccc3ccccc3c2)c2ccccc2[n+]1Cc1ccc2ccccc2c1.[Br-]
TGI (NCI-H522; NCI60 five-dose screen): 2270 nM

CSc1nc(-c2ccc(Cl)cc2)c2c(NC(=O)c3ccccc3)nnc-2[nH]1
cell growth (NCI-H522; SRB; 10 µM, NCI60 single-dose screen; reference: untreated): 92.6%

CCCN1CCN(c2ccc3[nH]c(-c4ccc5[nH]c(-c6ccc(C(F)(F)F)cc6)nc5c4)nc3c2)CC1
growth percent (NCI-H522; SRB; 10 µM, 48 h): -43.4%

C#C[C@@]1(O)[C@@H](CO)O[C@@H](n2cc(F)c3c(N)ncnc32)[C@@H]1O
TGI (NCI-H522; SRB; NCI-60 screen): 929 nM

Cc1cc2c(cc1C)[n+](Cc1ccc3ccccc3c1)cn2Cc1ccc2ccccc2c1.[Br-]
TGI (NCI-H522; NCI60 five-dose screen): 2990 nM

Cn1cncc1C1=CN(c2ncnc3[nH]cnc23)CCS1
TGI (NCI-H522; lung cancer): 81300 nM

O=c1ccn(Cc2cn(-c3c4ccccc4nc4ccccc34)nn2)c(=O)[nH]1
growth percentage (NCI-H522; NCI60 single-dose screen; 10 µM): -57.4%

C#C[C@@]1(O)[C@@H](CO)O[C@@H](n2ccc3c(N)ncnc32)[C@@H]1O
TGI (NCI-H522; SRB; NCI-60 screen): 3820 nM

Cc1cc(=O)[nH]c(=O)n1Cc1cn(-c2c3ccccc3nc3ccccc23)nn1
growth percentage (NCI-H522; NCI60 single-dose screen; 10 µM): -74.3%

CCCCc1n(Cc2ccc3ccccc3c2)c2ccccc2[n+]1Cc1ccc2ccccc2c1.[Br-]
TGI (NCI-H522; NCI60 five-dose screen): 1350 nM

CCCCN1CCN(c2ccc3nc(-c4ccc5nc(-c6cc(OC)ccc6OC)[nH]c5c4)[nH]c3c2)CC1
growth percent (NCI-H522; SRB; 10 µM, 48 h): 106%

O=C1NC(c2ccccc2)(c2ccccc2)C(=O)N1Cc1cn(-c2cc3ccccc3oc2=O)nn1
growth percentage (NCI-H522; NCI60 single-dose screen; 10 µM): 72.9%

Cc1cc(-c2ccccc2)n(-c2nc(-c3ccc(Cl)cc3)c3c(NC(=O)c4ccccc4)nnc-3[nH]2)n1
cell growth (NCI-H522; SRB; 10 µM, NCI60 single-dose screen; reference: untreated): 88.7%

CCCCN1CCN(c2ccc3[nH]c(-c4ccc5[nH]c(-c6ccc(OCC)cc6)nc5c4)nc3c2)CC1
growth percent (NCI-H522; SRB; 10 µM, 48 h): 68.8%

Cc1cc(C)n(C(=S)[S][Au][PH](CCCCCC[PH]([Au][S]C(=S)n2nc(C)cc2C)(c2ccccc2)c2ccccc2)(c2ccccc2)c2ccccc2)n1
log10 TGI (NCI-H522; cell growth, NCI-60 screen; non-small cell lung cancer): -5.32

COc1ccc(OC)c(-c2nc3ccc(-c4nc5ccc(N6CCN(C)CC6)cc5[nH]4)cc3[nH]2)c1
growth percent (NCI-H522; SRB; 10 µM, 48 h): 103%

CC(C)N(C[C@H]1O[C@@H](n2cnc3c(N)ncnc32)[C@H](O)[C@@H]1O)[C@H]1C[C@@H](CCc2nc3cc(C(C)(C)C)ccc3[nH]2)C1
viability (OCI-Ly1; 0.5 µM, 120 h): 140%

Repeated from above:
CCCN1CCN(c2ccc3[nH]c(-c4ccc5[nH]c(-c6ccc(C(F)(F)F)cc6)nc5c4)nc3c2)CC1
growth percent (NCI-H522; SRB; 10 µM, 48 h): -43.4%

C#C[C@@]1(O)[C@@H](CO)O[C@@H](n2cc(F)c3c(N)ncnc32)[C@@H]1O
TGI (NCI-H522; SRB; NCI-60 screen): 929 nM

Cc1cc2c(cc1C)[n+](Cc1ccc3ccccc3c1)cn2Cc1ccc2ccccc2c1.[Br-]
TGI (NCI-H522; NCI60 five-dose screen): 2990 nM
